Measured values collected from several papers.
Numbers after ± are the reported error.

SMILES	organism	test	test system	conditions	EC50
NC(=O)c1ncn([C@@H]2O[C@H](CO)[C@@H](O)[C@H]2O)n1	influenza A virus	cytopathic effect, MTS	MDCK, H1N1		2.8 ± 0.25 µM
Cc1cc2c(c(=S)[nH]1)C(=O)O/C2=C\c1sccc1C	influenza A H1N1, H3N2, influenza B	cytopathic effect	MDCK, A/Puerto Rico/8/34, A/Hong Kong/8/68, B/Lee/40	range over three viruses	< 20 µM
CC(C)C(=O)OC[C@H]1O[C@@](C#N)(c2ccc3c(N)ncnn23)[C@H](O)[C@@H]1O	swine acute diarrhea syndrome coronavirus	viral replication	Vero C1008	48 h	2.49 µM
CCC(CC)COC(=O)[C@H](C)N[P@](=O)(OC[C@H]1O[C@@](C#N)(c2ccc3c(N)ncnn23)[C@H](O)[C@@H]1O)Oc1ccccc1	human coronavirus 229E	viral replication, qPCR, measured: viral RNA	MRC-5	48 h	0.015 µM
NC12CC3CC(CC(C3)C1)C2	Influenza A virus	viral cytopathic effect, visual CPE score	MDCK, H3N2		> 1000 µM
CCOC(=O)C1=C[C@@H](OC(CC)CC)[C@H](NC(C)=O)[C@@H](N)C1	influenza A virus H3N2	viral replication	MDCK		90 ± 21 µM
NC12CC3CC(CC(C3)C1)C2	influenza A virus	viral replication, visual CPE score	MDCK, H1N1		34 ± 0.1 µM
O=C(O)c1cc(O)c(O)c(O)c1	Influenza A virus H1N1 pandemic	viral replication	A549	72 h	1 to 5 µg/mL
CC(N)C12CC3CC(CC(C3)C1)C2 (stereo not drawn)	Influenza A virus	viral cytopathic effect, visual CPE score	MDCK, H3N2		> 200 µM
O=C(N/N=C1\C(=O)Nc2ccc([N+](=O)[O-])cc21)N/N=C1\C(=O)Nc2ccc([N+](=O)[O-])cc21	influenza A virus	cytopathic effect, visual CPE score	MDCK, H1N1		47 ± 2.5 µM
O=C1O/C(=C\c2cccs2)c2cc(-c3ccccc3)[nH]c(=S)c21	influenza A H1N1, H3N2, influenza B	cytopathic effect	MDCK, A/Puerto Rico/8/34, A/Hong Kong/8/68, B/Lee/40	range over three viruses	15.1 to 31.7 µM
Cc1oncc1C(=O)Nc1ccc(C(F)(F)F)cc1	human coronavirus 229E	cytopathic effect, CellTiter-Glo	MRC5	3 d	59.5 µM
O=C(N/N=C1\C(=O)Nc2ccc(Cl)cc21)N/N=C1\C(=O)Nc2ccc(Cl)cc21	influenza A virus	cytopathic effect, visual CPE score	MDCK, H1N1		> 100 µM
CCCCCCCCCCCCS(=O)(=O)N[C@H]1C(=O)N[C@@H]2Cc3ccc(c(Cl)c3)Oc3cc4cc(c3O)Oc3ccc(cc3Cl)[C@@H](O[C@@H]3O[C@H](CO)[C@@H](O)[C@H](O)[C@H]3NC(C)=O)[C@H]3NC(=O)[C@H](NC(O)[C@@H]4NC(=O)[C@@H](NC2=O)c2cc(O)cc(c2)Oc2cc1ccc2O)c1ccc(O)c(c1)-c1c(O)cc(O)cc1[C@H](C(=O)O)NC3=O (stereo partly drawn)	human coronavirus 229E	viral replication	HEL	120 h	~2 µM
O=C(N/N=C1\C(=O)Nc2ccccc21)N/N=C1\C(=O)Nc2ccccc21	influenza A virus	cytopathic effect, visual CPE score	MDCK, H1N1		> 100 µM
CCC(CC)O[C@@H]1C=C(C(=O)O)C[C@H](N)[C@H]1NC(C)=O	influenza A virus	viral replication, visual CPE score	MDCK, H1N1		9 ± 0.22 µM
CCC(CC)O[C@@H]1C=C(C(=O)O)C[C@H](N)[C@H]1NC(C)=O	Influenza A virus	viral cytopathic effect, visual CPE score	MDCK, H3N2		9 µM
NC12CC3CC(CC(C3)C1)C2	influenza A virus	cytopathic effect, visual CPE score	MDCK, H1N1		5 µM
